Published values collected from several papers.
Each line is one published result; not all experiments were run side by side.
CTSL: Procathepsin L (CTSL, Homo sapiens, UniProt P07711)
UniProt P07711, sequence (whole entry, looked up): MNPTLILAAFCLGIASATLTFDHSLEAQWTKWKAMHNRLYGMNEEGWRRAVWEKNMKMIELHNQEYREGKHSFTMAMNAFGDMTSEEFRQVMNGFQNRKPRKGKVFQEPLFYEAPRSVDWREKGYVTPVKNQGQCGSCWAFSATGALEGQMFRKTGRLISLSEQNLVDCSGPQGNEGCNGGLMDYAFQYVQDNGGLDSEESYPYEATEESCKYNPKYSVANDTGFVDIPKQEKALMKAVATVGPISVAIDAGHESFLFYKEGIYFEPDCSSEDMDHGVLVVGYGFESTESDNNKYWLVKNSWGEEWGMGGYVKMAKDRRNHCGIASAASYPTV
DRD3: D(3) dopamine receptor (DRD3, Homo sapiens, UniProt P35462)
UniProt P35462, sequence (whole entry, looked up): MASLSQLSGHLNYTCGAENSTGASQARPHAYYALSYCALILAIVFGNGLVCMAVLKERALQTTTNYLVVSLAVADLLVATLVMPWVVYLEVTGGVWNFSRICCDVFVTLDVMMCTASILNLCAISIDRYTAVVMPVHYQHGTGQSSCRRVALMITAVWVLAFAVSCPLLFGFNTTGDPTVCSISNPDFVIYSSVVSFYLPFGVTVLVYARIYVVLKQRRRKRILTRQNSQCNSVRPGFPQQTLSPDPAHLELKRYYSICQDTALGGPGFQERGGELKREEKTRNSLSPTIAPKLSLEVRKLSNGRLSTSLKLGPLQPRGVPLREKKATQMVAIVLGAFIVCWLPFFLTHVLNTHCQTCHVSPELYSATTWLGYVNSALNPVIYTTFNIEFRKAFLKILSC
UniProt P19784, sequence (whole entry, looked up): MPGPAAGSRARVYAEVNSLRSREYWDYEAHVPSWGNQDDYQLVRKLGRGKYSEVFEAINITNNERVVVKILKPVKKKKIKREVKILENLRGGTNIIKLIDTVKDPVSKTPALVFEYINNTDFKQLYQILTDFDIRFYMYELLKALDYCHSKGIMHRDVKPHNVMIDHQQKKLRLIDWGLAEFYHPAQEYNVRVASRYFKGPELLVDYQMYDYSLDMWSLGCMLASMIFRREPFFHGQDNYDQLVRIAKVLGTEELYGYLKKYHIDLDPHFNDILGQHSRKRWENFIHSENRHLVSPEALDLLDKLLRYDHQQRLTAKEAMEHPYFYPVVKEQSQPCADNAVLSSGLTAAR
UniProt P49841, sequence (whole entry, looked up): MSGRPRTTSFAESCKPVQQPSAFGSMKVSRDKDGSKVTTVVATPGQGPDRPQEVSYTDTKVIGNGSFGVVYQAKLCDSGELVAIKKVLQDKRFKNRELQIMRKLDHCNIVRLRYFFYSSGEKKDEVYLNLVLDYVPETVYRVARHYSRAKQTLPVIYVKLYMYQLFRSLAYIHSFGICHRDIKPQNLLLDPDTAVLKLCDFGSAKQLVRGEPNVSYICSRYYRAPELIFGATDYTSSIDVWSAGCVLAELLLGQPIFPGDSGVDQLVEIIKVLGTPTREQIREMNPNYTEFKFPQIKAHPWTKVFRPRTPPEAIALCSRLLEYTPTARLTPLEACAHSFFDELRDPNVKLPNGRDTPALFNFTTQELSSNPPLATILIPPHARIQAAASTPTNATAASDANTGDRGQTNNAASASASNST
UniProt Q5MAI5, sequence (whole entry, looked up): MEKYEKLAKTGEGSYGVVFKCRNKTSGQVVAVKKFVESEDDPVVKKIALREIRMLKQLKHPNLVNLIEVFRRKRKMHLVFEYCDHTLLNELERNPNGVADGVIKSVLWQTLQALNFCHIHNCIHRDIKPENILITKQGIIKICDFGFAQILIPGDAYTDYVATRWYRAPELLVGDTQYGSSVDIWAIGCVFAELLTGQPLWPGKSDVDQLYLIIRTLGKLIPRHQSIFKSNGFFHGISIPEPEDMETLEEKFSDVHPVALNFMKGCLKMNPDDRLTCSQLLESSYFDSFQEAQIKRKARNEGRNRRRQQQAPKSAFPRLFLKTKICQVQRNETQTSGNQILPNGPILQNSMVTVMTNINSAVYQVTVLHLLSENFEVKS
UniProt P09619, sequence (whole entry, looked up): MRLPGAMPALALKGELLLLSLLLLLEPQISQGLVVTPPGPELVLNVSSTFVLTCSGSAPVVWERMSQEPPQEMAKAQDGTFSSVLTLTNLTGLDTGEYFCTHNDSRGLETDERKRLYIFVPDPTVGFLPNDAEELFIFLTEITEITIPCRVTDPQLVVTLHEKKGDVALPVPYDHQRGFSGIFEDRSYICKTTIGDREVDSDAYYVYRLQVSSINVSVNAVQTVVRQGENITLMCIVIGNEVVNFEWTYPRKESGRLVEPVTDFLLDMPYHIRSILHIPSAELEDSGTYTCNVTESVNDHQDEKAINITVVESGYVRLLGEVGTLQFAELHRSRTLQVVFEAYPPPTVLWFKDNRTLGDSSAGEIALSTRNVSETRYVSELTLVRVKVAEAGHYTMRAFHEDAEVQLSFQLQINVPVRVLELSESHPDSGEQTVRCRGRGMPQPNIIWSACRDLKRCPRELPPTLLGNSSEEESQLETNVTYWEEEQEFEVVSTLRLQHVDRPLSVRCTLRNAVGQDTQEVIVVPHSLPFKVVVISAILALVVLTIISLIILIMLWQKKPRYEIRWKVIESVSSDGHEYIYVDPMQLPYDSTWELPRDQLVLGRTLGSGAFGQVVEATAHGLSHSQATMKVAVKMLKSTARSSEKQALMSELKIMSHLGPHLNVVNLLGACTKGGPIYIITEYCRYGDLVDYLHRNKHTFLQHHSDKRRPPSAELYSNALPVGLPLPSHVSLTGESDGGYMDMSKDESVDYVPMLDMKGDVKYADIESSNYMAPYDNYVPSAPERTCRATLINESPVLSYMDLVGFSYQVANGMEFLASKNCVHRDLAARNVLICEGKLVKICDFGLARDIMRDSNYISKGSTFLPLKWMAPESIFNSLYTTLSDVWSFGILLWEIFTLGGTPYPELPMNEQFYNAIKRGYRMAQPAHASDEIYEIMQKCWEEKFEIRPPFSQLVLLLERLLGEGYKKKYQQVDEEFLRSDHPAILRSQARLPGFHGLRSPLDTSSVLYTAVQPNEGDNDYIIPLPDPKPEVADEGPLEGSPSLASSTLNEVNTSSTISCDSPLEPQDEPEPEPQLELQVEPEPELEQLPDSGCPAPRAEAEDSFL
UniProt Q9H8M2, sequence (whole entry, unmodified, looked up): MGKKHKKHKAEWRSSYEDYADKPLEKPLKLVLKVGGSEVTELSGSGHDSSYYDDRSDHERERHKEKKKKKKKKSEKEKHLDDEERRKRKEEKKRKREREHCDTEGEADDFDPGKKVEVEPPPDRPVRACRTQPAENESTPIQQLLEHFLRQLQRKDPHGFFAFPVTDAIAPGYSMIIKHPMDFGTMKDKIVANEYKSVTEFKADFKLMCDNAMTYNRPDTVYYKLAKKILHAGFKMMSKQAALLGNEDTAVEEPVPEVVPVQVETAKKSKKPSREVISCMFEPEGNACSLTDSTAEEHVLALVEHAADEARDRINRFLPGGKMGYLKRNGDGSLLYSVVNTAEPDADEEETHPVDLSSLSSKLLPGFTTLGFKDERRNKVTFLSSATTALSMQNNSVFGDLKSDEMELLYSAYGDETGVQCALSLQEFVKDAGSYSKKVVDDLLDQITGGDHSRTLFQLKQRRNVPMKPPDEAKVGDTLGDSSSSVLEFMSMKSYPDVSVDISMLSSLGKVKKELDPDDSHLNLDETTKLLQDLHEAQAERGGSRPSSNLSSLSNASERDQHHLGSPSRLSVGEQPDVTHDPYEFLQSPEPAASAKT
UniProt Q9UKI8, sequence (whole entry, looked up): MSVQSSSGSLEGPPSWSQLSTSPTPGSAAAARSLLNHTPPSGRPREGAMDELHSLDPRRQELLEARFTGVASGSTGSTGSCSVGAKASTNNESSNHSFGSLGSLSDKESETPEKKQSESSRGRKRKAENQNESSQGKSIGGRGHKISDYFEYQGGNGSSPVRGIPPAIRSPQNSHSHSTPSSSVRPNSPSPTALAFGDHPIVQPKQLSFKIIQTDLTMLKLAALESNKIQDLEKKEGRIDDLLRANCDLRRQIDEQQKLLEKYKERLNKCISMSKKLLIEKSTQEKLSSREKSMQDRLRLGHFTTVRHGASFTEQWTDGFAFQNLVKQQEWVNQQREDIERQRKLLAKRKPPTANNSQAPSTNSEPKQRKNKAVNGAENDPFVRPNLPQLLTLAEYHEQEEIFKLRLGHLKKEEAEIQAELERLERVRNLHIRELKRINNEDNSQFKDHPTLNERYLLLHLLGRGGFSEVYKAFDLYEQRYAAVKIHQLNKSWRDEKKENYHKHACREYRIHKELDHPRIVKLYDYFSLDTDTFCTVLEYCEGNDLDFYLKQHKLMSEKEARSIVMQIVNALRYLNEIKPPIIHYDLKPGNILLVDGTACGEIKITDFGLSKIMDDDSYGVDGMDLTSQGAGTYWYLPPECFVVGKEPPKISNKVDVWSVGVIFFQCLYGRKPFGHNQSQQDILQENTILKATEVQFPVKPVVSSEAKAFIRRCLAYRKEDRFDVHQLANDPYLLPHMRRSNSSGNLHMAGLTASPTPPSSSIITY
UniProt Q08881, sequence (whole entry, looked up): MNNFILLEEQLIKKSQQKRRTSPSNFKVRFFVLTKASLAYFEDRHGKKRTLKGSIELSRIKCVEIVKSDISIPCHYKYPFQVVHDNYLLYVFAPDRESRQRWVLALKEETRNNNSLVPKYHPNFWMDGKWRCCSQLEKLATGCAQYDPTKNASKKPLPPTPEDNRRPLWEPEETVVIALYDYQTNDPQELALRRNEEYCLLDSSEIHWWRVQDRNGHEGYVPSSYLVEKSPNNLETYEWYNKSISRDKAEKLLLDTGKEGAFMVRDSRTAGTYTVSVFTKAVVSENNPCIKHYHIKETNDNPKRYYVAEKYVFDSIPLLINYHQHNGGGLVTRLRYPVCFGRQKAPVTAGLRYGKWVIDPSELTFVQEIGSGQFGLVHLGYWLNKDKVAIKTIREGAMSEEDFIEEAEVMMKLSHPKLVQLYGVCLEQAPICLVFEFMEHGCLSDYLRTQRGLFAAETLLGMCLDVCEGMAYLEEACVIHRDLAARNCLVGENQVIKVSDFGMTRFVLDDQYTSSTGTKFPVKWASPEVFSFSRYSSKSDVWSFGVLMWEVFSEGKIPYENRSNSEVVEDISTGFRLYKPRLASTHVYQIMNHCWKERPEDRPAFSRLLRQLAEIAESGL

Structure (SMILES)	target or system	assay	system	setting	quantity	value
Nc1ncnc2occ(-c3ccc(NC(=O)Nc4cc(C(F)(F)F)ccc4F)cc3)c12	Tyrosine-protein kinase ABL1, phosphorylated (ABL1, Homo sapiens, UniProt P00519, M351T)	cell-free assay, inhibitor	–	20 µM	remaining signal	3.3%
O=C(CC(O)(CC(=O)OCc1ccc(OC2OC(CO)C(O)C(O)C2O)cc1)C(=O)OCc1ccc(OC2OC(CO)C(O)C(O)C2O)cc1)OCc1ccc(OC2OC(CO)C(O)C(O)C2O)cc1 (stereo not shown)	CTSL	enzyme activity, inhibitor	–	100 µM	remaining activity	102%
CCCCC(=O)Nc1ccc(-c2ccc3ncn(CCC)c(=O)c3c2)cn1	Tyrosine-protein kinase ITK/TSK (ITK, Homo sapiens, UniProt Q08881)	binding, competition with immobilised ligand	–	0.5 µM	remaining binding	100%
O=C(CCc1ccc(O)c(O)c1)NCCCNCCCCNCCCNC(=O)CCc1ccc(O)c(O)c1	CTSL	enzyme activity, inhibitor	–	100 µM	remaining activity	133%
Cc1ccc(N(O)N=Nc2ccc(S(=O)(=O)Nc3cc(C)on3)cc2)cc1	–	ABTS scavenging	–	300 µg/mL	inhibition	57.2%
COc1cc(-c2cncc3c2CN(C)Cc2cc(N4CCNCC4)ccc2-3)cc(OC)c1OC	Cyclin-dependent kinase-like 4 (CDKL4, Homo sapiens, UniProt Q5MAI5)	enzyme activity, inhibitor	–	1 µM	remaining activity	115%
C=CC(=O)N1CCC(COCC(=O)N2CCN(c3nc(-c4cnc(N)nc4C(F)F)nc(N4CCOC[C@@H]4C)n3)CC2)CC1	Mitogen-activated protein kinase kinase kinase 1 (MAP3K1, Homo sapiens, UniProt Q13233)	binding, competition with immobilised ligand	–	1 µM	remaining binding	100%
C1=C/COCc2cc(ccc2OCCN2CCCC2)Nc2nccc(n2)-c2cccc(c2)COC/1	Casein kinase II subunit alpha' (CSNK2A2, Homo sapiens, UniProt P19784)	binding	–	0.1 µM	remaining binding	28%
COc1cccc(-c2n[nH]c(SCc3ccccn3)n2)c1OC	–	–	female Sprague-Dawley rat, plasma	oral, 10 mg/kg, 1 h, single dose	concentration	4940 ng/mL
Cc1ccc(NS(=O)(=O)c2c(C)[nH]c(C)c2C(=O)N2CCCC2C)cc1Cl (stereo not shown)	DRD3	β-arrestin recruitment, agonist	–	90 min	Emax	103%
CNc1ncc2c(/C=C/C(=O)N3CCC(OC)CC3)nn(Cc3cccc(C(F)(F)F)c3)c2n1	Serine/threonine-protein kinase tousled-like 1 (TLK1, Homo sapiens, UniProt Q9UKI8)	enzyme activity, inhibitor, radiometric	–	1 µM	remaining activity	92%
Cc1noc(NS(=O)(=O)c2ccc(N=NN(C)O)cc2)c1C	–	ABTS scavenging	–	240 µg/mL	inhibition	95.6%
O=c1nc(N2CCN(CC3CCCCC3)CC2)sc2c([N+](=O)[O-])cc(C(F)(F)F)cc12	–	–	CD-1 mouse, lung	oral, 100 mg/kg, 8 h	concentration	396 ng/mL
CCNC(=O)c1c(C)[nH]c(C)c1S(=O)(=O)Nc1ccc(C(F)(F)F)c(Cl)c1	DRD3	β-arrestin recruitment, agonist	–	90 min	Emax	108%
Cc1cc([C@@H](C)Nc2ccccc2C(=O)O)c2nc(N3CCC(F)(F)CC3)c(C#N)c(=O)n2c1	Platelet-derived growth factor receptor beta (PDGFRB, Homo sapiens, UniProt P09619)	binding, competition with immobilised ligand	–	1 µM	remaining binding	92%
NC(=O)C(=O)c1c[nH]c2ccccc12	CTSL	enzyme activity, inhibitor	–	100 µM	remaining activity	91.1%
CC[C@H](C)[C@H](NC(=O)[C@H](CCC(N)=O)NC(=O)[C@H](CC(C)C)NC(=O)[C@H](CCSC)NC(=O)[C@H](CCCCN)NC(=O)[C@H](CO)NC(=O)[C@H](CO)NC(=O)[C@H](CCSC)NC(=O)[C@H](CC(C)C)NC(=O)[C@H](CC(N)=O)NC(=O)[C@@H](NC(=O)[C@@H](NC(=O)[C@H](CO)NC(=O)[C@H](CC(C)C)NC(=O)[C@H](CS)NC(=O)[C@H](CCCNC(=N)N)NC(=O)[C@H](CC(=O)O)NC(=O)[C@H](Cc1c[nH]c2ccccc12)NC(=O)[C@H](Cc1ccccc1)NC(=O)[C@H](C)NC(=O)[C@H](CCC(=O)O)NC(=O)[C@@H](N)CCCCN)C(C)C)[C@@H](C)CC)C(=O)N[C@@H](CC(N)=O)C(=O)N[C@@H](C)C(=O)O	Glycogen synthase kinase-3 beta (GSK3B, Homo sapiens, UniProt P49841)	enzyme activity, inhibitor, radiometric	–	10 µM	inhibition	1%
O=C(/C=C/c1ccc(O)cc1)c1c(O)cc(O)cc1O	CTSL	enzyme activity, inhibitor	–	100 µM	remaining activity	5.8%
COc1cc(-c2cc(C(C)=O)n3ccccc23)c(OC)cc1CN1CC(O)C1	Bromodomain-containing protein 9 (BRD9, Homo sapiens, UniProt Q9H8M2)	thermal stability, DSF	–	200 µM	ΔTm	10.5 °C
